Published values from different studies.
Protocols differ between the studies behind these lines.
Observed: metabolic stability

CCn1cc(C(=O)NCCNCCO)c(=O)c2cc(OCc3ccc(F)cc3)c(Cl)cc21  microsomal CLint (male rat, liver microsomes; 1 µM): < 11.6 µL/min/mg
COc1ccc2c(c1OCc1ccccc1)C[C@@H](C(=O)O)N(c1nc3ccc(C#N)cc3o1)C2  scaled CLint (rat, liver microsomes; 1 µM, pH 7.4): 8.13 mL/min/kg
Cc1ccc(N2C(=O)c3ccccc3NC23C(=O)N(C)c2ccc(Br)cc23)cc1 (centres unmarked)  hepatocyte CLint (rat, hepatocytes): 135 µL/min/10⁶ cells
CC1(CCCCCCCCCCCCS(=O)(=O)CCCOP(=O)(O)CO[C@H](CO)Cn2ccc(N)nc2=O)COC1  hepatocyte CLint (rat, hepatocytes; 1 µM): 33.3 µL/min/10⁶ cells
COc1cc(O)c(-c2cc(-c3cc(-c4c(O)cc(OC)c5c4C[C@@H](C)N[C@@H]5C)c4cc(C)cc(OC)c4c3O)c(O)c3c(OC)cc(C)cc23)c2c1[C@@H](C)N[C@H](C)C2  microsomal CLint (male rat, liver microsomes; 1 µM): < 11.6 µL/min/mg
Cc1cc(N2CC[C@@](C#N)(C3CC3)C2=O)cc(NC(=O)Cc2ccccc2)n1  microsomal CLint (rat, liver microsomes; 0.5 µM): 25 µL/min/mg
Nc1ccn(C[C@@H](CO)OCP(=O)(O)OCCCS(=O)(=O)CCCCCCCCCCCCC2CCC2)c(=O)n1  hepatocyte CLint (rat, hepatocytes; 1 µM): 14.7 µL/min/10⁶ cells
CCn1cc(C(=O)NCCNCCO)c(=O)c2cc(OCc3ccc(C(F)(F)F)cc3)c(C(F)(F)F)cc21  microsomal CLint (male rat, liver microsomes; 1 µM): < 11.6 µL/min/mg
Nc1ccn(C[C@@H](CO)OCP(=O)(O)OCCCS(=O)(=O)CCCCCCCCCCCCCC2CCC2)c(=O)n1  hepatocyte CLint (rat, hepatocytes; 1 µM): 6.85 µL/min/10⁶ cells
CCn1cc(C(=O)NCCNCCO)c(=O)c2cc(OCc3ccc(C(C)(C)C)cc3)c(Cl)cc21  microsomal CLint (male rat, liver microsomes; 1 µM): < 11.6 µL/min/mg
COc1ccc(COc2c(OC)ccc3c2C[C@@H](C(=O)O)N(c2nc4ccc(F)cc4o2)C3)cc1  scaled CLint (rat, liver microsomes; 1 µM, pH 7.4): 10.4 mL/min/kg
CC1=N[C@H](C)Cc2c(-c3ccc(C)cc3)ccc(O)c21  microsomal CLint (male rat, liver microsomes; 1 µM): > 250 µL/min/mg
C=C(C)C(=O)Nc1ccc(-c2c(-c3ccc(Oc4nccc(C)n4)cc3)c3c(N)ncnc3n2C)cc1  hepatocyte CLint (rat, hepatocytes): 12 µL/min/10⁶ cells
Cc1cc(N2CCC(C#N)(C3(C)CC3)C2=O)cc(C(=O)NCc2cc(F)cc(-c3cnn(C)c3)c2)n1 (racemic)  microsomal CLint (rat, liver microsomes; 0.5 µM): 39 µL/min/mg

Some of these lines once more:
Nc1ccn(C[C@@H](CO)OCP(=O)(O)OCCCS(=O)(=O)CCCCCCCCCCCCC2CCC2)c(=O)n1  hepatocyte CLint (rat, hepatocytes; 1 µM): 14.7 µL/min/10⁶ cells
C=C(C)C(=O)Nc1ccc(-c2c(-c3ccc(Oc4nccc(C)n4)cc3)c3c(N)ncnc3n2C)cc1  hepatocyte CLint (rat, hepatocytes): 12 µL/min/10⁶ cells
